Measurements collected from several papers.
Parts stem from different laboratories: compare values within a part only.
Sequence of UniProt P29376 (whole entry, looked up): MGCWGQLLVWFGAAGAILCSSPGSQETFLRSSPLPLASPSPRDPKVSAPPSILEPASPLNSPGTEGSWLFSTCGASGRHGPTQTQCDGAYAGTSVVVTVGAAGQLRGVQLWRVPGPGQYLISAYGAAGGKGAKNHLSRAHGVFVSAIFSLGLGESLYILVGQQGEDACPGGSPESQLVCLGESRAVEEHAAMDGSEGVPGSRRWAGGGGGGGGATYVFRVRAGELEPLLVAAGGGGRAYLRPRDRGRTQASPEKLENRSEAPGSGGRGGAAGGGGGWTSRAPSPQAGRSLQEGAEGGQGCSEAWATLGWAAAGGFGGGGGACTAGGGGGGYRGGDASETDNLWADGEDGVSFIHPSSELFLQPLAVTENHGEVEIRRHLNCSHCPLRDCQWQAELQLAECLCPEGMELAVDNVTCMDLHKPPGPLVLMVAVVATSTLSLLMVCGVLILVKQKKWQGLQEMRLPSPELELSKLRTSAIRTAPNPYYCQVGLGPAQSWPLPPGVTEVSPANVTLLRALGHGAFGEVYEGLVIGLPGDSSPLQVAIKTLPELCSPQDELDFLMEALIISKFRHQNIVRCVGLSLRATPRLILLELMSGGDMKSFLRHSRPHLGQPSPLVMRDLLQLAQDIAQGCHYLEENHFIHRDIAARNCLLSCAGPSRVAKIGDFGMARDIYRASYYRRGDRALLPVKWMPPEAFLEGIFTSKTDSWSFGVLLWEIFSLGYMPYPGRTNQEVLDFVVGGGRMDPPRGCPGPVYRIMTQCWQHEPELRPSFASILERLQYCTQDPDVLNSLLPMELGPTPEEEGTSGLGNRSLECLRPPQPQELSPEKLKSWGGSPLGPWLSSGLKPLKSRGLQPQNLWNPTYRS
Sequence of UniProt Q96PY6 (whole entry, looked up): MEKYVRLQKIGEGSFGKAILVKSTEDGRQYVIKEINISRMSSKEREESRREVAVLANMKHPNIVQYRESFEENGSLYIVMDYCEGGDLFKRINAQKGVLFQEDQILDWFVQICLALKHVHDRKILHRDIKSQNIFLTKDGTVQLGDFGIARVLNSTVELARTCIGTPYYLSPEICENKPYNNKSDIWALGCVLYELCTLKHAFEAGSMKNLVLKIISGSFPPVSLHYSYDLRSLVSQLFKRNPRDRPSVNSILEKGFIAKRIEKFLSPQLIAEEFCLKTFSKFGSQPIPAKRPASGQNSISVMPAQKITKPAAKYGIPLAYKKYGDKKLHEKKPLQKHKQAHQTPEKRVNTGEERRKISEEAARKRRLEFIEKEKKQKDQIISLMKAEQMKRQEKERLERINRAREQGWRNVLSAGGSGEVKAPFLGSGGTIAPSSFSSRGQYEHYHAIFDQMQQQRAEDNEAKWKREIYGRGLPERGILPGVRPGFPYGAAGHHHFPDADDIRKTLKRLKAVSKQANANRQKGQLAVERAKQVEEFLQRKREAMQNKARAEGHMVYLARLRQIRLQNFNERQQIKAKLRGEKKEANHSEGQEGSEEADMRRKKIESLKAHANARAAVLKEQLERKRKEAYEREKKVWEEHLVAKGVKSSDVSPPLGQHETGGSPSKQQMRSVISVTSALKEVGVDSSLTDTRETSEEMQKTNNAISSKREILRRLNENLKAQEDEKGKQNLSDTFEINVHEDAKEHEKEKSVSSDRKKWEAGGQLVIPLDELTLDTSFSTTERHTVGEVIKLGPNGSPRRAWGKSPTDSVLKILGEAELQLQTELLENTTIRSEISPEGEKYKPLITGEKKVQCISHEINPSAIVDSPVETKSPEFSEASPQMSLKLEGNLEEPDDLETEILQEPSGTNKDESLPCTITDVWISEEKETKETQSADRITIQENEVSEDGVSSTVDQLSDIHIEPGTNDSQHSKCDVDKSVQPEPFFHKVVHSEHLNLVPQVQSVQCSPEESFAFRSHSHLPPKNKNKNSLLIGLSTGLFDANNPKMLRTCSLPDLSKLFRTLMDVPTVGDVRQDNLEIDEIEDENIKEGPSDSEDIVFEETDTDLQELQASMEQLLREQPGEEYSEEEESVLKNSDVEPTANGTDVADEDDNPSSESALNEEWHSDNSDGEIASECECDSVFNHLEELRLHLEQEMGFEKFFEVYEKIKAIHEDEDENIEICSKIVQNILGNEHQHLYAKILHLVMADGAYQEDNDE
Sequence of UniProt Q13554 (whole entry, looked up): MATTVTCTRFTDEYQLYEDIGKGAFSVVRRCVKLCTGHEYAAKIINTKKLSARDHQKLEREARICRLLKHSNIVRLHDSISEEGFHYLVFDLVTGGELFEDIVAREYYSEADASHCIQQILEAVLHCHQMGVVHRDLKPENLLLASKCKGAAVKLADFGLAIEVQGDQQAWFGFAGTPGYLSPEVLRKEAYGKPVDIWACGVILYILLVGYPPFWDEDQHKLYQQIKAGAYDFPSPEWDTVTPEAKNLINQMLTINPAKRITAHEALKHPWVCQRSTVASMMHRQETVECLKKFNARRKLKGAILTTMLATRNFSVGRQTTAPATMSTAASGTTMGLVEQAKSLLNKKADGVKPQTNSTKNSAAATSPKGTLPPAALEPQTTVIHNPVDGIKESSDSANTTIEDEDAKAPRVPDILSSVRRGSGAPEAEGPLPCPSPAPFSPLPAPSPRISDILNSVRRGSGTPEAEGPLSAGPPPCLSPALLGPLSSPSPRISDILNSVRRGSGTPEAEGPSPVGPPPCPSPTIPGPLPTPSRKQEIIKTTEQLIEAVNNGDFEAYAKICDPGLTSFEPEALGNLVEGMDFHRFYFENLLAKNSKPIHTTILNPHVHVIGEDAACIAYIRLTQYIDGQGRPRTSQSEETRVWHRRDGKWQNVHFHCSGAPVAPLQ
Sequence of UniProt P10721 (whole entry, unmodified, looked up): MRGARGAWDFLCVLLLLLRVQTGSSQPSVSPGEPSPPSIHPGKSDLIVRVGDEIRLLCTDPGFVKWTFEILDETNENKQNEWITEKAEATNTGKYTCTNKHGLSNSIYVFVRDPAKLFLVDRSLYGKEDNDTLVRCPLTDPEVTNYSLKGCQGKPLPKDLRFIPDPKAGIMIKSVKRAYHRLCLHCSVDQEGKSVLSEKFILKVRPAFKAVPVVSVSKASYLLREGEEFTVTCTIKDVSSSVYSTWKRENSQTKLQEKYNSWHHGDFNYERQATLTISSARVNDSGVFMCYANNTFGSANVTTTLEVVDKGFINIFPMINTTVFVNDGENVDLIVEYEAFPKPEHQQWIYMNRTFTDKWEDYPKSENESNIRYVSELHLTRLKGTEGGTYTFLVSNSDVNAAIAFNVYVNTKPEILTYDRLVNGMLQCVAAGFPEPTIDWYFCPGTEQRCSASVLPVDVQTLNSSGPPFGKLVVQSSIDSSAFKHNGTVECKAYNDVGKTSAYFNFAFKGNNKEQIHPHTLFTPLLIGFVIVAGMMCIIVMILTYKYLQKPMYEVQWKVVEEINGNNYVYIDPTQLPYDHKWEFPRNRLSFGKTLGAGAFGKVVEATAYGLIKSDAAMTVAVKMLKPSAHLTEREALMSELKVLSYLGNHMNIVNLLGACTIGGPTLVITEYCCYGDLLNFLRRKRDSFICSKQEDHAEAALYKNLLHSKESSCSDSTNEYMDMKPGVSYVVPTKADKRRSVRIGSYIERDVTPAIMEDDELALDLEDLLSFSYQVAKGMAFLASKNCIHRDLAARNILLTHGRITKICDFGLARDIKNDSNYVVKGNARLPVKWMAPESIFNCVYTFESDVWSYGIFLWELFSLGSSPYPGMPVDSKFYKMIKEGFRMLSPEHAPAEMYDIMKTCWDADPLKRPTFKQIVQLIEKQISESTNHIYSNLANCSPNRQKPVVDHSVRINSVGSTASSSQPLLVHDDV
Sequence of UniProt Q9NWZ3 (whole entry, looked up): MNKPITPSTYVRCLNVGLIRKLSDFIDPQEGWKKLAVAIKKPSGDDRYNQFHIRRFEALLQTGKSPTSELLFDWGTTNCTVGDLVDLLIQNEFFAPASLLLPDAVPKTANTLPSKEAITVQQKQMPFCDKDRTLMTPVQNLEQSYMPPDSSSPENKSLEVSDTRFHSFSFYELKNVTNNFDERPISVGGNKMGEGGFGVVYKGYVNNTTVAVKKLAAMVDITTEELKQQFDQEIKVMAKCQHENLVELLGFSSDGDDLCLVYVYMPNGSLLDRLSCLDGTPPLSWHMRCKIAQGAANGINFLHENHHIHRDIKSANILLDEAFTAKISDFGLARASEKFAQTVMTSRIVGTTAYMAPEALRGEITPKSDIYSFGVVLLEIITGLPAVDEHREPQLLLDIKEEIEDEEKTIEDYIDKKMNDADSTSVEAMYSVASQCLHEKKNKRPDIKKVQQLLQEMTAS

Block 1 — effect on: enzyme activity; action: inhibitor; tested at: 0.5 µM; baseline: control
Target: Mitogen-activated protein kinase 10 (MAPK10, Homo sapiens, UniProt P53779)
Sequence of UniProt P53779 (whole entry, looked up): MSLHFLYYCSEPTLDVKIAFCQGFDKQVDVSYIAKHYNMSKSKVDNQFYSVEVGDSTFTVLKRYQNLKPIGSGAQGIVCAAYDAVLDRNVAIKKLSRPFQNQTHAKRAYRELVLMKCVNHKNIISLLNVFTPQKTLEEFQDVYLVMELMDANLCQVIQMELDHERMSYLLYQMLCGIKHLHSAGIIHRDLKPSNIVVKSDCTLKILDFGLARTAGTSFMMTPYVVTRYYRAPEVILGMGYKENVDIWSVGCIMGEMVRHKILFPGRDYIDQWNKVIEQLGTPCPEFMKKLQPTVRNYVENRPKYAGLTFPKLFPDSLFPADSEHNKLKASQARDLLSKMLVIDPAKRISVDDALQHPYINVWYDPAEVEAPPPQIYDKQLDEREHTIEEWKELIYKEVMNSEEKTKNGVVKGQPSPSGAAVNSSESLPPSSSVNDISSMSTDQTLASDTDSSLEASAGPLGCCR
| SMILES | remaining activity [%] |
| --- | --- |
| COc1cc2ncnc(Nc3ccc(Oc4ccccc4)cc3)c2cc1OC | 103 |
| NCCNc1ncc(C(N)=O)c(Nc2cccc(C(F)(F)F)c2)n1 | 92.2 |
| Cc1ccc(NC(=O)c2ccc(CN3CCN(C)CC3)cc2)cc1Nc1nc(-c2cccnc2)cs1 | 94.2 |
| CNC(=O)c1cc(Oc2ccc(NC(=O)Nc3ccc(Cl)c(C(F)(F)F)c3)cc2)ccn1 | 94.2 |
| Nc1ncnc2n[nH]c(Nc3ccc(F)cc3)c12 | 100 |
| Cc1nc(-c2ccccc2)c(-c2ccncc2)o1 | 101 |
| Oc1ccc(-c2nc(-c3ccncc3)c(-c3ccc(F)cc3)[nH]2)cc1 | 117 |
| O=C(Nc1cccc(Nc2cc(Nc3cccc(C(F)(F)F)c3)ncn2)c1)C1CC1 | 83.4 |
| Cn1sc(=O)n(Cc2ccccc2)c1=O | 91.1 |
| COc1ccc(CNC(=O)Nc2ncc([N+](=O)[O-])s2)cc1 | 96.1 |
| O=C1NC(=O)C(c2cn(CCCO)c3ncccc23)=C1c1cnccn1 | 88 |
| Cc1cccc(-c2[nH]c(C(C)(C)C)nc2-c2ccc3c(c2)OCO3)n1 | 96 |
| CC(C)[C@H](CO)Nc1nc(Nc2cc(N)cc(Cl)c2)c2ncn(C(C)C)c2n1 | 94.6 |
| Nc1[nH]nc2nc3ccccc3nc12 | 92.1 |
| COc1ccc(OC)c2c(=S)c3ccccc3[nH]c12 | 108 |
| C#Cc1cccc(Nc2ncnc3cc(OCCOC)c(OCCOC)cc23)c1 | 99.6 |

Block 2 — effect on: cell-free assay; method: competition with immobilised ligand; tested at: 1 µM
Compound: O=C(NS(=O)(=O)c1ccc(NCC2CCOCC2)c([N+](=O)[O-])c1)c1ccc(N2CCN(Cc3ccc(C(F)(F)F)cc3-c3ccc(Cl)cc3)CC2)cc1Oc1cnc2[nH]ccc2c1
| target | remaining binding [%] |
| --- | --- |
| FLT3 (Homo sapiens, UniProt P36888) | 80 |
| DAPK3 (Homo sapiens, UniProt O43293) | 91 |
| KDR (Homo sapiens, UniProt P35968) | 100 |
| DSTYK (Homo sapiens, UniProt Q6XUX3) | 94 |
| MAPKAPK5 (Homo sapiens, UniProt Q8IW41) | 81 |
| CAMK2B (Homo sapiens, UniProt Q13554) | 96 |
| Macrophage colony-stimulating factor 1 receptor, autoinhibited (CSF1R, Homo sapiens, UniProt P07333) | 85 |

Block 3 — species: human; sample: microsomes or S9; tested at: 2 µM; time: 0.5 h
| Compound | remaining compound |
| --- | --- |
| O=C(Nc1ccccc1C(F)(F)F)N1Cc2c(sc3c2CCCC3)-n2cccc2C1c1ccccc1 (stereo not drawn) | 14.6% |
| O=S(=O)(c1ccccc1)c1nc(-c2ccccc2)oc1NCC1CCCO1 (stereo not drawn) | 2.5% |
| Cc1cc(C)cc(-n2nc(NC(=O)NC3(c4noc(C)n4)CCC3)cc2C)c1 | > 100% |
| CCn1ccc2cc(C(=O)N3C[C@@H](CN4C[C@@H](C)O[C@@H](C)C4)[C@@H](CO)C3)ccc21 | 24.8% |
| O=S(=O)(NCC(c1ccco1)S(=O)(=O)c1cccs1)c1ccc2c(c1)CCCC2 (stereo not drawn) | 1.92% |
| OCCCc1cn(-c2ccccc2)c2ccccc12 | 13.7% |
| O=C(Nc1ccc2[nH]ncc2c1)c1csc2ccccc12 | 77.1% |
| COc1cc(Cn2nnc(-c3ccc(C)cc3)n2)c(OC)cc1Br | > 100% |
| O=C(NCc1ccc(F)cc1)N1Cc2c(sc3c2CCCC3)-n2cccc2C1c1cccs1 (stereo not drawn) | 8.43% |
| c1ccc2c(-c3ccc4[nH]ncc4c3)csc2c1 | 21.2% |
| CCC(C)NC(=O)Cn1nc(C(=O)N2CCCC2)ccc1=O (stereo not drawn) | 76% |

Block 4 — tested at: 1 µM
Structure (SMILES): CN1CCN(C(=O)c2ccc(NC(=O)Nc3ccc(N(C)c4ccnc(Nc5ccc(CS(C)(=O)=O)cc5)n4)cc3)cc2)CC1
| target | method | refers to | notes | baseline | remaining binding |
| --- | --- | --- | --- | --- | --- |
| ROCK2 (Homo sapiens, UniProt O75116) | competitive binding panel | – | – | vehicle | 1.5% |
| PTK2B (Homo sapiens, UniProt Q14289) | competitive binding panel | PYK2 | – | vehicle | 20% |
| MERTK (Homo sapiens, UniProt Q12866) | competitive binding panel | – | – | vehicle | 56% |
| PRKG1 (Homo sapiens, UniProt Q13976) | competitive binding panel | – | – | vehicle | 100% |
| LTK (Homo sapiens, UniProt P29376) | competitive binding panel | – | – | vehicle | 85% |
| KIT (Homo sapiens, UniProt P10721, V559D/V654A) | competitive binding panel | – | – | vehicle | 9.1% |
| PIK3CA (Homo sapiens, UniProt P42336, I800L) | competitive binding panel | – | – | vehicle | 98% |
| IRAK4 (Homo sapiens, UniProt Q9NWZ3) | competitive binding panel | – | – | vehicle | 52% |
| NEK1 (Homo sapiens, UniProt Q96PY6) | competitive binding panel | – | – | vehicle | 63% |
| CLK3 (Homo sapiens, UniProt P49761) | competitive binding panel | – | – | vehicle | 95% |
| PRKACA (Homo sapiens, UniProt P17612) | competitive binding | – | PKAC-alpha | – | 100% |
